Published values gathered from unrelated publications.
Numbered parts are unrelated; each lists some results of a single study.

Series 1 — method: protein binding microarray; molecule type: double-stranded DNA, one strand shown; matrix: in vitro; tested at: not given; relative to: not given; reading: higher = stronger binding
Target: Histone acetyltransferase KAT6A, winged helix 1, GST fusion (KAT6A, Homo sapiens, UniProt Q92794, residues 1-85)
Setting: 8-mer, flanks averaged, mean of 2 arrays, mostly near background
Target sequence (chain): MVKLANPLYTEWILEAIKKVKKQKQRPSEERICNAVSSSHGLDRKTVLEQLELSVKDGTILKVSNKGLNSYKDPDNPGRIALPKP
For `AACCTGGG`, the E-score was -0.132.
`CATACTGC` gave an E-score of -0.0155.
For `AGCACCCG`, the E-score was 0.325.
`CGCTATGA` gave an E-score of 0.168.
`GACTTGGC` has an E-score of -0.207.
`ATCACGCG` gave an E-score of 0.259.
The E-score of `CTAACCTA` is reported as -0.146.
For `GCATGCCA`, the E-score was -0.0895.
The E-score of `CAAGGCAG` is reported as -0.201.
With `GTATGAAC` the E-score was 0.0371.
The E-score of `AGTGGTAT` is reported as -0.158.
The E-score of `AAAACTAT` is reported as -0.0303.
For `AAATAGCA`, the E-score was -0.136.
For `AGAGATCG`, the E-score was -0.00477.
`ATCCGCTA` has an E-score of 0.258.
`GTATAGTA` gave an E-score of 0.13.
The E-score of `CCGAATAG` is reported as -0.0798.
`CGCCCGTC` gave an E-score of 0.421.
`CTGCAGGA` has an E-score of -0.295.
`TGGATCAA` gave an E-score of -0.272.
For `CGACAGCA`, the E-score was -0.00942.
`ATAAGCTC` has an E-score of -0.124.
The E-score of `AAACAGAC` is reported as -0.117.
`CGCAGTCA` has an E-score of 0.111.
With `CGGGGGGC` the E-score was 0.351.

Series 2 — method: protein-binding microarray; molecule type: hairpin DNA; matrix: in vitro; tested at: not given; relative to: not given; reading: higher = stronger binding
Target: FOXO3, forkhead domain (mouse, UniProt Q9WVH4, residues 31-263)
Sequence of UniProt Q9WVH4 (31-263, looked up): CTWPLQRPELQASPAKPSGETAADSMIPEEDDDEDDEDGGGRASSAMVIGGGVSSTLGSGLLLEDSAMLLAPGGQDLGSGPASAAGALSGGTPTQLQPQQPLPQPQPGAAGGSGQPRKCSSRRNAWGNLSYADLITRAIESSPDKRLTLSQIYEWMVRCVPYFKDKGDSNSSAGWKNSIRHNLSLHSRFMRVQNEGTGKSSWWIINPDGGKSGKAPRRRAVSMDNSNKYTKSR
Setting: whole hairpin DNA, median over replicate spots
`GAGGCCATGTACGCAACGCCTCCTGGCGTTGCGTACATGGCCTCACACTC` has a median fluorescence of 4400 a.u.
With `GAGGCCATGCAAGCAACGCCTCCTGGCGTTGCTTGCATGGCCTCACACTC (5mC at 32)` the median fluorescence was 5660 a.u.
For `GAGGCCATGTAAACCGCGCCTCCTGGCGCGGTTTACATGGCCTCACACTC (5mC at 15 29)`, the median fluorescence was 4350 a.u.
For `GAGGCCATTTAAACAACGCCTCCTGGCGTTGTTTAAATGGCCTCACACTC`, the median fluorescence was 3420 a.u.
The median fluorescence of `GAGGCCATGCAAACAACGCCTCCTGGCGTTGTTTGCATGGCCTCACACTC (5mC at 10)` is reported as 6100 a.u.
The median fluorescence of `GAGGCCATGTGAACAACGCCTCCTGGCGTTGTTCACATGGCCTCACACTC (5mC at 34)` is reported as 4160 a.u.
`GAGGCCACGTAAACAACGCCTCCTGGCGTTGTTTACGTGGCCTCACACTC` has a median fluorescence of 5720 a.u.
`GAGGCCATGTAACGAACGCCTCCTGGCGTTCGTTACATGGCCTCACACTC` has a median fluorescence of 4060 a.u.
The median fluorescence of `GAGGCCCGGTAAACAACGCCTCCTGGCGTTGTTTACCGGGCCTCACACTC (5mC at 7)` is reported as 6450 a.u.
The median fluorescence of `GAGGCCATGCGACCAACGCCTCCTGGCGTTGGTCGCATGGCCTCACACTC (5mC at 34)` is reported as 4590 a.u.
For `GAGGCCACGCAAACAACGCCTCCTGGCGTTGTTTGCGTGGCCTCACACTC (5mC at 8 36)`, the median fluorescence was 5150 a.u.
With `GAGGCCATCGAAACAACGCCTCCTGGCGTTGTTTCGATGGCCTCACACTC (5mC at 9 35)` the median fluorescence was 4040 a.u.
With `GAGGCCATGTAGACAACGCCTCCTGGCGTTGTCTACATGGCCTCACACTC (5mC at 33)` the median fluorescence was 4080 a.u.
`GAGGCCATCGAACCAACGCCTCCTGGCGTTGGTTCGATGGCCTCACACTC` gave a median fluorescence of 4540 a.u.
`GAGGCCATGTAACGAACGCCTCCTGGCGTTCGTTACATGGCCTCACACTC (5mC at 13 31)` has a median fluorescence of 3960 a.u.
For `GAGGCCATGCACGCAACGCCTCCTGGCGTTGCGTGCATGGCCTCACACTC`, the median fluorescence was 4880 a.u.
For `GAGGCCACGTAACCAACGCCTCCTGGCGTTGGTTACGTGGCCTCACACTC (5mC at 8)`, the median fluorescence was 4280 a.u.
With `GAGGCCATGTAACTAACGCCTCCTGGCGTTAGTTACATGGCCTCACACTC` the median fluorescence was 3550 a.u.
The median fluorescence of `GAGGCCATGTAACCGACGCCTCCTGGCGTCGGTTACATGGCCTCACACTC (5mC at 30)` is reported as 4190 a.u.
The median fluorescence of `GAGGCCATGCAAACGACGCCTCCTGGCGTCGTTTGCATGGCCTCACACTC (5mC at 14)` is reported as 4570 a.u.
`GAGGCCACGTAACCAACGCCTCCTGGCGTTGGTTACGTGGCCTCACACTC (5mC at 8 36)` gave a median fluorescence of 4250 a.u.
With `GAGGCCGTGCAAACAACGCCTCCTGGCGTTGTTTGCACGGCCTCACACTC` the median fluorescence was 5370 a.u.
The median fluorescence of `GAGGCCATGCACACAACGCCTCCTGGCGTTGTGTGCATGGCCTCACACTC (5mC at 12)` is reported as 4570 a.u.
The median fluorescence of `GAGGCCATGTAACGAACGCCTCCTGGCGTTCGTTACATGGCCTCACACTC (5mC at 13)` is reported as 3880 a.u.
For `GAGGCCATTTAACCAACGCCTCCTGGCGTTGGTTAAATGGCCTCACACTC`, the median fluorescence was 3520 a.u.

Series 3 — method: RNA Bind-n-Seq; molecule type: RNA; matrix: in vitro; tested at: 365 nM; relative to: no-protein control; reading: higher = stronger binding
Target: RNA binding protein fox-1 homolog 2, RRM domain, GST-SBP tag (RBFOX2, Homo sapiens, UniProt O43251-10, residues 100-194)
Setting: natural RNA segment, single round, ends assumed
Target sequence (chain): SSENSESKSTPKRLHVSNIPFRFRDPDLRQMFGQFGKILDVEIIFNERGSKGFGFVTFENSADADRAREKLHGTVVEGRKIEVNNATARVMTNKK
For `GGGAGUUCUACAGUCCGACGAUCGACAUGAGUUCCUAAAGGGCACUGAAAAGGGCACCUCCUUCCUGUGUCUGCCUCCACUGCACCCCCAGUCCCUAAAGCAGGGAUCGUGUGUGGUGAGGAACGCUCUCUUCUGGAAUUCUCGGGUGCCAA`, “RBNS enrichment (R)” read 0.393.
For `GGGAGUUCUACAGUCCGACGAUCCCAGUUCAACUACUGGCGUCCACCGGCCGCGCCACGAACCCCUUGCCGAUCCCGAUCCCUGUCGGGCUCCUCCGACUCCUCGGGCUGGACACCGAAACCUCCCUUCUUAAUGGAAUUCUCGGGUGCCAA`, “RBNS enrichment (R)” read 0.218.
`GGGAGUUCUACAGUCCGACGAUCAUUACUAUGCUAGGUCCUCACUACUGCCCCCUGCAGGCUGGGGAAAGGGAACUUUUUGUCUACGCUAAGUCCCUGGCUUCCUCUUAAUCGGUUGGUCUUGCUAAUUGAAGUGGAAUUCUCGGGUGCCAA`: “RBNS enrichment (R)” 0.373.
`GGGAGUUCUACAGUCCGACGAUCCCUUCUCCAAGCUUGAAUGUCUUCCGGACCCUGAGAGAGGAGGACUCCACGGAGCCAGGCCUCCUCCCAUGGGGUGUCCCAGUGUAUAACUUUAUGACUUAGUUCUUCAUUGGAAUUCUCGGGUGCCAA`: “RBNS enrichment (R)” 0.491.
Under “RBNS enrichment (R)”, `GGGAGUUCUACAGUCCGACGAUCAGCCACCCCUCAUAAGAGCCCUGUUCUCUGAAGACCAUUCAUAUGAGAACAAAGGUCUAGGAUACUGCAUUAGUUACCAGAAAACUAGGGGAAUUUAGAGGGAAAAAAAAUGGAAUUCUCGGGUGCCAA` is recorded as 0.386.
`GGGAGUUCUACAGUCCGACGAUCCCUGGCUGUGCCUACCACUCCUGCAUACUGUGCUUAUGUGCGUGCUGCGCUUUGAUGGGGAGGAGGGCAGGUCCCUGUGCAGCCAGGGUUCUUGCUCCUUCCAUGGCAGGUGGAAUUCUCGGGUGCCAA`: “RBNS enrichment (R)” 1.06.
Under “RBNS enrichment (R)”, `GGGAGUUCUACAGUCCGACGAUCUUUUUCCAAGCACUUUAACUUCAGAAAUGGUCUUGACACUUUUUUCUCCACAUAGACUCUUGAAAUAGCCAUUUCAGGGGAGGAAAGGGUUGGGGUUUUCUUUGUUUGUUUGGAAUUCUCGGGUGCCAA` is recorded as 0.736.
Under “RBNS enrichment (R)”, `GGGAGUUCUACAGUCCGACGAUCAUUUGAAUUCCAUUCCCAGUUCUCAUUGUGUUUUGUUUCUUAAAACUAUAAUAAUCGGUUACUGUUAUAAAGUUUAAAAGGUGGUUUUAAUGUGAAUAGCAAAUUCUGGUUGGAAUUCUCGGGUGCCAA` is recorded as 0.873.
For `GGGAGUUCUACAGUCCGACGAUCAGUAACUAAAACACCCUUCUCUCGGAAUAAUAGACCCUGAAGUCUCUCUUUUUCAAGUUGUCCUUUCUUCACCCUUUACUGAUUUAAUACAGAAUAACAAUCUUAUUUUCUGGAAUUCUCGGGUGCCAA`, “RBNS enrichment (R)” read 0.576.
`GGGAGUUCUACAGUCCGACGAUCUAGGUGUCUUUAAGAAAAUAACAAGCAACCCUGUGAUAUGUUCCGUCUCUCCCAAUUCCCUCGUUAUAUAGAGGGCUUAAUGGUAUAAAUGGUUAAUAUUGGUCCCAACAUGGAAUUCUCGGGUGCCAA` — result for “RBNS enrichment (R)”: 0.948.
For `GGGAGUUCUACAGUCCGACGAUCGCACAGCCCACUUGGAUUUGUUUGUUUGGUUUUGCCUUGAGACUGGGUCUCACUAUACAGAGCAGCCUGCCUCCCCACUGCUGGGAUUAAGCUGAGAAGCACCAAGUCUGUGGAAUUCUCGGGUGCCAA`, “RBNS enrichment (R)” read 1.79.
`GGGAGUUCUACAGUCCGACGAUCCCUCUCCAGACACAGAGACAUGGGAGUGGGGAGCGGAGCUUGGCCCUGCGCCCUGUGCAGGGAAAGGGAUGGUCAGGCCCAGUUCUCGUGCCCUUAGAGGGGAAUGAACCUGGAAUUCUCGGGUGCCAA` — result for “RBNS enrichment (R)”: 1.32.

Series 4 — method: RNA Bind-n-Seq; molecule type: RNA; matrix: in vitro; tested at: 100 nM; setting: RNA with constant flanks, ends assumed; relative to: input RNA pool; reading: higher = stronger binding
Target: RING finger protein unkempt homolog, zinc fingers 1-6, SBP tag (UNK, Homo sapiens, UniProt Q9C0B0, residues 30-357)
Sequence of UniProt Q9C0B0 (30-357, looked up): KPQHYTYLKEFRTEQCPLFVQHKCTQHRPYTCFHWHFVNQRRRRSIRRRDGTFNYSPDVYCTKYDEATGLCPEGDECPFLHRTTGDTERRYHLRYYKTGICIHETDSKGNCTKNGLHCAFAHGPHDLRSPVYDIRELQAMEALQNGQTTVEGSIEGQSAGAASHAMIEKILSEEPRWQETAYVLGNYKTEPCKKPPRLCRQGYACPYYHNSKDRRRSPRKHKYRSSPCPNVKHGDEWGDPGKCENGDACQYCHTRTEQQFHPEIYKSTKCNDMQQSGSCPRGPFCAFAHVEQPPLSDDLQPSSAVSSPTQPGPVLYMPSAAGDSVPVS
The bound/input enrichment of `GGGAGUUCUACAGUCCGACGAUCCCCAUGGCUGCUUUGUGUCACCUCAGUGACUUACAGUCCCCCUUGGCAUUCCGUUGGUACCCGAGCCAGUCAUCCUUAACAAAUCUUUUCACAUUUUAUUUCUUUCACAUGCCGUCAUCUCAACAGAGGAUUGAGCAUCA` is reported as 1.8 ratio.
With `GGGAGUUCUACAGUCCGACGAUCGUGCAAGGAAAUUAUUCCAACCCGUGAAUUUAUUAACAGUAAGUUAACAGCAAAAGCAAACCGGCAACUUCAAGAUCCUUCCGUAAUCAUGACAGGAAACAUCCCAACAUGGCUUACUGACAACAGAGGAUUGAGCAUCA` the bound/input enrichment was 0.369 ratio.
The bound/input enrichment of `GGGAGUUCUACAGUCCGACGAUCUUCACCACUCCUGGGUGCAUGAUUGAGGGUGAAGCAUCCACCAGCACUUCAAGGGGUCCACCGUAUUUUUUUUUUUGCUGCCUCAAAGUCCCCAAAGCCUUCGAGCAGAAGUGGCAGCCGCAACAGAGGAUUGAGCAUCA` is reported as 0.87 ratio.

For quick reference, copied from above (series 2):
With `GAGGCCATGTAGACAACGCCTCCTGGCGTTGTCTACATGGCCTCACACTC (5mC at 33)` the median fluorescence was 4080 a.u.
`GAGGCCATCGAACCAACGCCTCCTGGCGTTGGTTCGATGGCCTCACACTC` gave a median fluorescence of 4540 a.u.
`GAGGCCATGTAACGAACGCCTCCTGGCGTTCGTTACATGGCCTCACACTC (5mC at 13 31)` has a median fluorescence of 3960 a.u.
For `GAGGCCATGCACGCAACGCCTCCTGGCGTTGCGTGCATGGCCTCACACTC`, the median fluorescence was 4880 a.u.
For `GAGGCCACGTAACCAACGCCTCCTGGCGTTGGTTACGTGGCCTCACACTC (5mC at 8)`, the median fluorescence was 4280 a.u.
With `GAGGCCATGTAACTAACGCCTCCTGGCGTTAGTTACATGGCCTCACACTC` the median fluorescence was 3550 a.u.
